Measurements from different studies.
Cell line: Jurkat

| SMILES | assay | setting | scale | quantity | value |
| --- | --- | --- | --- | --- | --- |
| CCCCCCCCCCCCCC(=S)NCCCC[C@H](NS(C)(=O)=O)C(=O)N[C@H](C)C(=O)N[C@@H](CCCNC(=N)N)C(N)=O | cell growth or viability, MTT | 72 h |  | EC50 | 7.2 to 14.7 µM |
| Cc1[nH][n+]([Pd-2]([Br])([Br])[n+]2[nH]c(C)c(CSCc3ccccc3)c2C)c(C)c1CSCc1ccccc1 | cytotoxicity |  | relative to: IC50 HEK293 over IC50 Jurkat | selectivity index | 1.7 |
| CCCCCCCCCCCCNC(=S)NCCCC[C@H](NC(=O)OCc1ccccc1)C(=O)N[C@@H](Cc1c[nH]c2ccccc12)C(=O)NC(C)C | cell growth or viability, MTT | 72 h |  | EC50 | 34.3 to 45.4 µM |
| Cc1[nH][n+]([Pd-2]([Cl])([Cl])[n+]2[nH]c(C)c(CSCc3ccccc3)c2C)c(C)c1CSCc1ccccc1 | cytotoxicity |  | relative to: IC50 HEK293 over IC50 Jurkat | selectivity index | 2.2 |
| NC(=O)c1ccc(-c2ccccc2Cl)c2c3c([nH]c12)CCC(N)C3 (stereo not shown) | cell growth or viability | 96 h |  | IC50 | 0.0209 µM |
| N#Cc1c(N)nc2c(c1-c1ccc(CO)o1)Cc1cc(O)ccc1-2 | cell growth or viability, ATP luminescence |  |  | IC50 | 6.3 µM |
| COc1cc(-c2cn(C)c(=O)c3cnccc23)cc(OC)c1CN(C)C | cell growth or viability | 7 days |  | EC50 | > 10 µM |
| CCCCCCCCCCCCCC(=S)NCCCC[C@H](NC(=O)OCc1ccccc1)C(=O)Nc1ccccc1 | cell growth or viability, MTT | 72 h |  | EC50 | 7.27 to 16 µM |
| Cc1[nH][n+]([Pd-2]([Cl])([Cl])[n+]2[nH]c(C)c(CSC3CCCCC3)c2C)c(C)c1CSC1CCCCC1 | cytotoxicity |  | relative to: IC50 HEK293 over IC50 Jurkat | selectivity index | 1.7 |
| N#Cc1c(N)nc2c(c1-c1ccc[nH]1)Cc1cc(O)ccc1-2 | cell growth or viability, ATP luminescence |  |  | IC50 | 18.7 µM |

A few entries again:
| SMILES | assay | setting | scale | quantity | value |
| --- | --- | --- | --- | --- | --- |
| N#Cc1c(N)nc2c(c1-c1ccc[nH]1)Cc1cc(O)ccc1-2 | cell growth or viability, ATP luminescence |  |  | IC50 | 18.7 µM |
